Measured values of several laboratories.
“And” joins repeats or separate records; there may be more than shown.

COc1cc(N2CCN(C(=O)C3CCCN3)CC2)ccc1Nc1ncc(Cl)c(Nc2ccccc2P(C)(C)=O)n1 (stereo not shown)
early apoptotic cells (Ba/F3 EML4-ALK; annexin V flow cytometry; concentration not given, 0.5 h): 3.3%

Cc1ccc(-n2cc(CSc3nc4ccccc4n3Cc3cn(-c4ccc(C)cc4)nn3)nn2)cc1
viability (Caco-2; MTT; 7.81 ppm): 61.4%

CO[C@@H]1[C@@H](OC(N)=O)[C@@H](O)[C@H](Oc2ccc3c(O)c(NC(=O)c4ccc(O)c(CC=C(C)C)c4)c(=O)oc3c2C)OC1(C)C
colony survival (HCT-116 parental; 200 µM; baseline: untreated): 22.9%

Cc1cc(NC2CCN(C)CC2)ccc1-c1cc2c(N3CCC[C@H](C(=O)Nc4cccc(Cl)c4)C3)ncnc2[nH]1
inhibition (NCI-H2228; cell growth or viability, MTT; 5 µg/mL, 72 h): 86.6%

COc1cccc(/C=N/Nc2nc(Nc3ccccc3)nc(-n3nc(C)cc3C)n2)c1O
EC50 (LDR; silenced CMV-GFP reporter derepression, qHTS): 2.51 µM

O=C(N1CCCC1)n1cc(-c2ccc(-c3ccccc3)cc2)nn1
SILAC ratio per peptide (mouse T cells; N-terminal labelling proteomics, item: Oxsr1 N-terminal peptide; 0.001 µM, 6 h; baseline: DMSO): 1.17 and 0.95 and 1.09

CCN(C(=O)c1cc(F)ccc1Oc1nncnc1N1CCC2(C1)CN([C@H](CCCN(C)CCOC)C(C)C)C2)C(C)C
GI50 (NCI-H82; cell growth or viability; 72 h): > 10 µM

Cc1ccc(/C=N/N=C(\S)Nc2cccc(S(=O)(=O)N(C)C)c2)o1
efficacy (LDR; silenced CMV-GFP reporter derepression, qHTS): 72%

Cc1cc(NC2CCN(C)CC2)ccc1-c1cc2c(N3CCC[C@H](C(=O)Nc4ccc(C(F)(F)F)cc4)C3)ncnc2[nH]1
inhibition (NCI-H2228; cell growth or viability, MTT; 5 µg/mL, 72 h): 86%

C=CC(=O)Nc1ccc(OC)c(-c2c[nH]c3ncc(-c4cncc(C(=O)N(C)C)c4)cc23)c1
GI50 (Ba/F3 BCR-ABL T315I; cell proliferation; 72 h): > 1 µM

O=C(NCc1ccc(OC(F)(F)F)cc1)[C@H]1CCCN(c2ncnc3[nH]c(-c4cc(F)c(F)c(F)c4)cc23)C1
inhibition (NCI-H2228; cell growth or viability, MTT; 5 µg/mL, 72 h): 55.3%

O=C(C[Se]C(=O)c1ccccc1Nc1ccccc1)Nc1cccc(C(F)(F)F)c1
mean TGI (NCI60 renal subpanel; total growth inhibition, inhibitor; five-dose): 3.44 µM

CN1CCCNC(=O)c2cccc(c2)C(=O)NCCCN(C)CCCNc2cccc3c2C(=O)c2cccc(c2C3=O)NCCC1
log2 fold change (SAS; RNA-Seq, item: UBE2D3 mRNA; 1 µM, 6 h; baseline: untreated cells): -0.665

CNS(=O)(=O)Nc1nccc(Cc2c(C)c3ccc(Oc4ncccc4F)cc3oc2=O)c1F
IC50 (A-172; cell viability, CellTiter-Glo; 7 days): 212 nM

Cc1ncsc1-c1ccc(C(C)NC(=O)C2CC(O)CN2C(=O)C(NC(=O)CCCCCCCCCCN2CCCC(Nc3ncc(Cl)c(Nc4ccccc4S(=O)(=O)C(C)C)n3)C2)C(C)(C)C)cc1 (stereo not shown)
log2 fold change (22Rv1; RNA-seq, item: ZBTB37 mRNA; concentration not given; baseline: DMSO): -1.83

Cc1cc(NC2CCN(C)CC2)ccc1-c1cc2c(N3CCC[C@H](C(=O)N[C@H](C)c4ccccc4)C3)ncnc2[nH]1
inhibition (NCI-H2228; cell growth or viability, MTT; 1 µg/mL, 72 h): 85.5%

O=C(C[Se]C(=O)C12CC3CC(CC(C3)C1)C2)Nc1cccc(C(F)(F)F)c1
GI50 (NCI60 NSCLC subpanel; NCI60 five-dose screen): 3.91 µM

Cn1ncc2cc(-c3cncc(Cl)c3N3CCC4(CCNC4=O)CC3)ccc21
log2 fold change (LS174T; gene expression, microarray, item: LRRC19 mRNA; concentration not given, 4 h; baseline: untreated cells): 2.76

CC(C)c1ccc(N(C)c2ccc3c(c2)OCC[C@H]3CNc2cnccc2C(=O)O)cc1
IC50 (CAPAN-1; cell growth or viability, ATP luminescence; 7 days): 116 nM

Cc1cc(NC2CCN(C)CC2)ccc1-c1cc2c(N3CCC[C@H](C(=O)Nc4ccc(C#N)cc4)C3)ncnc2[nH]1
inhibition (NCI-H2228; cell growth or viability, MTT; 0.2 µg/mL, 72 h): 66.1%

CCCCCCCCCCCC(=O)N[C@@H](CO)C[C@@H](O)c1cccc(CCCCCC)c1
ceramide level (HeLa; CERT activity, HPLC-MS/MS lipidomics, item: ceramide 20; 1 µM, 24 h, not cell-number normalised): 129 pmol/sample and 145 pmol/sample and 216 pmol/sample

COCC/N=C(\S)N/N=C(\C)c1ccccc1O
EC50 (LDR; silenced CMV-GFP reporter derepression, qHTS): 3.98 µM

COc1ccccc1-c1ccncc1C(=O)Nc1nnc(OCc2ccc(Cl)cc2)s1
colony survival (MDA-MB-436 BRCA1-mutant; 6 µM, single replicate; baseline: untreated): 31% and 51.1% and 48.1%

O=C(CSc1cccc[n+]1[O-])c1ccccc1Br
Emax (LDR; silenced CMV-GFP reporter derepression, qHTS): 80%

Cc1sc2c(c1C)C(c1ccc(Cl)cc1)=N[C@@H](CC(=O)NCC(=O)N1CCC3(CCC(C(=O)N4CCN(C(=O)c5cc(Cc6n[nH]c(=O)c7ccccc67)ccc5F)CC4)CC3)CC1)c1nnc(C)n1-2
cells in G2 phase (NCI-H82; 1000 nM, 24 h): 6%

CCN(CC)CC(=O)Nc1cccc(-n2cc(-c3ccc4ccc(-c5cn(-c6cccc(NC(=O)CN(CC)CC)c6)nn5)cc4c3)nn2)c1
fold regulation (RCC4; PCR angiogenesis array, item: TEK; 5 x IC50, 4 h, normoxia; baseline: untreated): 2.51 fold

CN1CCN(C(=O)c2ccc(-c3cc4c(N5CCC[C@H](C(=O)NCc6ccc(OC(F)(F)F)cc6)C5)ncnc4[nH]3)cc2)CC1
inhibition (NCI-H2228; cell growth or viability, MTT; 0.008 µg/mL, 72 h): 50.1%

COc1cc(OC)c(F)c(/C=C/c2cnc3ccn(S(=O)(=O)c4cn(CCF)cn4)c3n2)c1F
inhibition (SNU-16 (FGFR2-amplified); cell proliferation; 333.3 nM): 67.5% and 65.3%

Cc1cc(Cl)cc(-c2ccnc3cc(CN4C(=O)C5C(C4=O)C5(C)C)sc23)c1C[C@@H]1CNCCO1 (stereo partly shown)
cells in S phase (CHP-212 resistant; PI staining flow cytometry; 0.3 µM, 24 h): 12.4% and 18.3% and 13.9%

COC(=O)c1cc(NC2=NC(=O)C(=Cc3ccc(N(C)C)cc3)S2)ccc1OC(C)=O
metabolite level (MCF7; GC-MS, item: L-Valine; 1 µM; baseline: DMSO): -0.19 fold change

Cc1cc(N2CCCCC2)ccc1-c1cc2c(N3CCC[C@H](C(=O)NCc4ccc(OC(F)(F)F)cc4)C3)ncnc2[nH]1
inhibition (NCI-H2228; cell growth or viability, MTT; 0.008 µg/mL, 72 h): 12.3%

Cn1ncc(-c2ccc3c(=O)[nH]nc(CN)c3c2)c1-c1c(F)c(Cl)cc(OC2CC2)c1C#N
IC50 (NCI-H2228; cell viability, inhibitor, CellTiter-Glo; 120 h, baseline-subtracted): 50 nM

COc1ccc2c(c1)c(CC(=O)[Se]CC(=O)Nc1cccc(C(F)(F)F)c1)c(C)n2C(=O)c1ccc(Cl)cc1
mean TGI (NCI60 renal subpanel; total growth inhibition, inhibitor; five-dose): 3.86 µM

C=CC(=O)N1CCCC(n2c(=O)c3ncccc3n(Cc3ccc(Oc4ccccc4)cc3)c2=O)C1 (stereo not shown)
log2 fold change (Rec1; item: TMCC1-AS1; concentration not given; baseline: untreated): -0.509

Excerpt of the above:
CN1CCN(C(=O)c2ccc(-c3cc4c(N5CCC[C@H](C(=O)NCc6ccc(OC(F)(F)F)cc6)C5)ncnc4[nH]3)cc2)CC1
inhibition (NCI-H2228; cell growth or viability, MTT; 0.008 µg/mL, 72 h): 50.1%

COc1cc(OC)c(F)c(/C=C/c2cnc3ccn(S(=O)(=O)c4cn(CCF)cn4)c3n2)c1F
inhibition (SNU-16 (FGFR2-amplified); cell proliferation; 333.3 nM): 67.5% and 65.3%

Cc1cc(Cl)cc(-c2ccnc3cc(CN4C(=O)C5C(C4=O)C5(C)C)sc23)c1C[C@@H]1CNCCO1 (stereo partly shown)
cells in S phase (CHP-212 resistant; PI staining flow cytometry; 0.3 µM, 24 h): 12.4% and 18.3% and 13.9%
